Experimental data pooled from the literature.
Numbered parts are unrelated; each lists some results of a single study.
Sequence of UniProt P20263 (131-289, looked up): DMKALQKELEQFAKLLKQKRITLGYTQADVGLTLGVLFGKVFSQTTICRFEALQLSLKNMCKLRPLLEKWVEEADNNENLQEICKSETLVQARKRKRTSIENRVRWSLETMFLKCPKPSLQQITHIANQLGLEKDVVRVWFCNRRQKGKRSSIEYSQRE

Study 1
Cell line: HEK-293T
Observed: pseudovirus infection
Organism: VSV pseudotyped with SARS-CoV-2 spike
Tested at: 10 µM
Time: 16 h
Reference: vehicle-treated
`C=C(c1ccc(C(=O)O)cc1)c1cc2c(cc1C)C(C)(C)CCC2(C)C` gave a GFP-positive cells of 43.8%.
`CO[C@@]1(NC(=O)Cc2cccs2)C(=O)N2C(C(=O)O)=C(COC(N)=O)CS[C@@H]21` gave a GFP-positive cells of 78.4%.
`Cc1ccc(Nc2nccc(N(C)c3ccc4c(C)n(C)nc4c3)n2)cc1S(N)(=O)=O` gave a GFP-positive cells of 118%.
The GFP-positive cells of `Nc1ncn([C@H]2C[C@H](O)[C@@H](CO)O2)c(=O)n1` is reported as 95.7%.

Study 2
Target: Hepatocyte nuclear factor 3-alpha (Foxa1, Mus musculus, UniProt P35582, residues 1-468, full length assumed)
Method: EMSA with sequencing
Form: double-stranded DNA, one strand shown
Matrix: in vitro
Tested at: 10 and 20 nM
Notes: whole designed probe, mean of two concentrations, ends assumed
Reference: negative control set to 0
Reading: higher = stronger binding
Residues (chain): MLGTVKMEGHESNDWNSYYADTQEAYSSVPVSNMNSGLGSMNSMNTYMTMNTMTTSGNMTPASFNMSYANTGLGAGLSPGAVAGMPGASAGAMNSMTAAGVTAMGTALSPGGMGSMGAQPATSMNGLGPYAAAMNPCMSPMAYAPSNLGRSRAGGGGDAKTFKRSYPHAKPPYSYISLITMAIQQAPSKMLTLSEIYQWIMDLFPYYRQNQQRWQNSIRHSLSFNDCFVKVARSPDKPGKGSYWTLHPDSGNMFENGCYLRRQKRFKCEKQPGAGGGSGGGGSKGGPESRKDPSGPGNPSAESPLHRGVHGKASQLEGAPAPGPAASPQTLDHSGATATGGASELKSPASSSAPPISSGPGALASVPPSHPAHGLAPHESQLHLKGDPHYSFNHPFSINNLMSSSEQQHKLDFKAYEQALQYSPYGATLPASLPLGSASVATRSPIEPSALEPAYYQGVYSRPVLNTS
Under “normalised bound fraction”, `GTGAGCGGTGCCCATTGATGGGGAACATCTTCCCCCTCTTCCTTGCCCCACCAGCTCACCTTCCCGGGTTATTTGCAGATAGGAAAATAAATAAAGCCGGCATTCGTTAACGCAGTTCACGCGCATACTGCTGTTTGCTCTGCATCTAACATGGTCCTTACGCGAGGCGTGGCTCCGGGAGAGCAAAGCACCGTGTCAGGCGCATGATCCGGGCTCGCCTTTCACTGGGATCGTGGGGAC` is recorded as 0.364 ratio.
Under “normalised bound fraction”, `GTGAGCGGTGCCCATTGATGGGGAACTCAAGCATAAGCTACAACTTGCTGGCTCCCCATCTCCCAACAGAAAAAAAAAAAAAAAACCAACAAAACTATGGCCCTGAGAGGATGGCTCTGTATTTACATTCAGCATCATATATCAGCATTTACCAGGGTGAGGCCAATGGCTGTCAACTCCTGGCTCTTAGTCAATATTTAATCACTGTTCAGTTATGTATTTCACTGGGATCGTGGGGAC` is recorded as 0.307 ratio.
For `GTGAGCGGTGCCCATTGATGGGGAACAACTATTATAAATAACAATTACAGAGGCGTATCAAAAAGGCTTTTAATTGAAGAGTATTTACAATTAAATTATAACAGAAAGAATACTGTAAAAGTAAACAAGTAAGTTCTTTTTGAAAAACAGGAATGTGTAACATTCAAAAAGACCACAAAAATTAATTTCTGTGTTACAGAATATTGAGAAATCCTATTCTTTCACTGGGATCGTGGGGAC`, “normalised bound fraction” read 0.41 ratio.
For `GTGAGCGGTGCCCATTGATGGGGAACCTTGCTGATTGCTAGCACAGCAGTCTGAGATCAAACTGCAAGGCGGCAGCAAGGCTGGGGGAGGGGCGCCCGCCATTGCCCAGGCTTGCTTAGGTAATCTAAGCAGCCTGGAAGCTCGTACTGGGTGGAGCCCACGACGCTCAAGGAGGCCTGCCTGCCTCTGTAGGCTCCACCTCTGGGGGCAGGGCACAGATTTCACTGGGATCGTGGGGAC`, “normalised bound fraction” read -0.0615 ratio.
`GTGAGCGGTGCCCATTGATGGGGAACATCTTCCCCCTCTTCCTTGCCCCACCAGCTCACCTTCCAGCGTTCTGTGAGTTAAAGGAAATAAATAAAGCCGGCATTCGTTAACCCTCTTCTGGCGCAAACTGCTGTTTGCTCTGGATGAATCATGGTCCTTTGGCGACGCCAGGCTCCGGGAGAGCAAAGCACCGTGTCAGGGCCATGATCCGGGGTGGCCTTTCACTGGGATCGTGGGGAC` — result for “normalised bound fraction”: 0.236 ratio.
For `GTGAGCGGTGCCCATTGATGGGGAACTGTTCTTCTATGAGACTATTGTCATCTCGGTAATTAAGAATGATTTCCAGTTCTCTGGAACTTCTCGTCTGATCCAGTAGGTCCTTAGCAAATAGATTGCACTGCCGTGACAGCTCTTCATACTCCGACTTGAATTCATTTTCCACCTTGCTCAGTTCCTGAAGTTCCCAACTTAACTGAAAGGCTGTGAGAATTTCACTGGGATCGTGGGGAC`, “normalised bound fraction” read 0.0925 ratio.

Study 3
Target: Replicase polyprotein 1ab, main protease (rep, Severe acute respiratory syndrome coronavirus 2, UniProt P0DTD1)
Observed: enzyme activity
Action: inhibitor
Tested at: 20 µM
Notes: primary screen
The inhibition of `O=C1c2cccc(O)c2C(=O)c2c(O)cc(CO)cc21` is reported as 51.5%.
`Oc1ccc2c3c1O[C@H]1c4[nH]c5c(c4C[C@@]4(O)[C@@H](C2)N(CC2CC2)CC[C@]314)C[C@@]1(O)[C@H]2Cc3ccc(O)c4c3[C@@]1(CCN2CC1CC1)[C@H]5O4` has an inhibition of 93.2%.
With `O=[N+]([O-])C=Cc1ccc2c(c1)OCO2` the inhibition was 98.8%.
`CCN(CC)S(=O)(=O)c1cccc(-n2sc3ccccc3c2=O)c1` has an inhibition of 100%.
`Oc1cc2c(cc1O)CN(C(=S)NCCc1ccc(Cl)cc1)CCC2` gave an inhibition of 60.5%.

Study 4
Target: Replicase polyprotein 1ab, nsp13 helicase (rep, Severe acute respiratory syndrome coronavirus 2, UniProt P0DTD1)
Action: inhibitor
Tested at: 20 µM
The inhibition of `CN1CCN(C(c2ccccc2)c2ccccc2)CC1` is reported as -0.15%.
`Oc1ccc(-c2nc3cc(O)cc(Br)c3o2)cc1` gave an inhibition of 8.45%.
The inhibition of `c1cc(CN2CCCNCCNCCCNCC2)ccc1CN1CCCNCCNCCCNCC1` is reported as 1.32%.
With `CCN(Cc1ccccc1)C(=O)Cn1c(=O)n(C)c2cnc(-c3ccccc3)nc21` the inhibition was 2.81%.
For `CC(C)(C)[N+]([O-])=Cc1ccc(S(=O)(=O)O)cc1S(=O)(=O)O`, the inhibition was 8.96%.
`CCOC(CN1CCN(CC(C)C(=O)c2ccccc2)CC1)c1ccccc1` (stereo not drawn) gave an inhibition of -1.36%.
`O=C(OCCN1CCOCC1)C1(c2ccccc2)CCCCC1` gave an inhibition of -5.14%.
`CO/N=C(\C(=O)N[C@@H]1C(=O)N2C(C(=O)OCOC(=O)C(C)(C)C)=C(/C=C\c3scnc3C)CS[C@H]12)c1csc(N)n1` has an inhibition of 9.59%.
For `COc1cccc([C@@]2(O)CCCC[C@@H]2CN(C)C)c1`, the inhibition was -3.59%.
The inhibition of `COCC1=C(C(=O)O)N2C(=O)[C@@H](NC(=O)/C(=N\OC)c3csc(N)n3)[C@H]2SC1` is reported as 7.5%.
`CCCCC[C@H](O)/C=C/[C@H]1[C@H](O)CC(=O)[C@@H]1C/C=C\CCCC(=O)O` has an inhibition of 0.95%.
With `CC[N+](CC)(CC)CC(=O)Nc1c(C)cccc1C` the inhibition was 2.42%.
The inhibition of `CCN1CCN(Cc2ccc(C(=O)Nc3ccc(C)c(Oc4ccc5c(c4)CC(=O)N5)c3)cc2C(F)(F)F)CC1` is reported as 8.09%.
`C[C@@H]1CC[C@H]2[C@@H](C)C(=O)O[C@@H]3O[C@@]4(C)CC[C@@H]1[C@]32OO4` has an inhibition of 0.44%.
`O=C(O)COc1ccc(C(=O)c2cccs2)c(Cl)c1Cl` has an inhibition of 1.61%.
For `Cc1ccc(NC(=O)c2ccc(CN3CCN(C)CC3)cc2)cc1Nc1nc(-c2cccnc2)cs1`, the inhibition was 18.4%.
`CN(C)CCc1c[nH]c2ccc(C[C@H]3COC(=O)N3)cc12` gave an inhibition of 11.2%.
With `CC1(C)[C@H]2CC[C@]1(C)[C@@H](O)[C@H]2O` the inhibition was 8.66%.
`COc1ccc2cccc(N3CCN(CCNC(=O)c4ccc(F)cc4)CC3)c2c1` gave an inhibition of -1.56%.
The inhibition of `Nc1nc2ccc(Cl)cc2c2nc(-c3ccco3)nn12` is reported as 5.94%.
`COc1cc2ncnc(Nc3cccc(Br)c3)c2cc1OC` gave an inhibition of 9.74%.
With `Cc1ccc(NC2=NCCN2)c(Cl)c1` the inhibition was 3.37%.
`Cc1ccccc1-n1c(CF)nc2ccc(N)cc2c1=O` has an inhibition of 1.36%.
For `N#CCC1(n2cc(-c3ncnc4[nH]ccc34)cn2)CN(C2CCN(C(=O)c3ccnc(C(F)(F)F)c3F)CC2)C1`, the inhibition was -1.42%.
`CC1(C)O[C@@H]2C[C@H]3[C@@H]4CCC5=CC(=O)C=C[C@]5(C)[C@@]4(F)[C@@H](O)C[C@]3(C)[C@]2(C(=O)CO)O1` has an inhibition of 4.62%.

Study 5
Target: Interferon regulatory factor 5, full length, phosphomimetic (IRF5, Homo sapiens, UniProt Q13568-2, residues 1-514, K96S/S451D/S453D/S456D/S462D)
Method: protein-binding microarray
Form: double-stranded DNA, one strand shown
Matrix: in vitro
Tested at: 250 nM
Notes: 60-bp whole probe
Added: salmon DNA 0.4 mg/ml
Reference: random background probes
Reading: higher = stronger binding
Constant ends, left off below: GCCTAGCAC … GTCTTGATTCGCTTGACGCTGCTG
The log fluorescence of `TCAAATTCTCTTTTCACACTGTGCTAG` is reported as 1.14 z-score.
`GACGAACTGGGTTTCGAGACGTGCTAG` has a log fluorescence of 2.07 z-score.
`TTAGATCTCCTTCTCCTTTAGTGCTAG` gave a log fluorescence of 0.22 z-score.
`TTAGGTTTCCTTTTCCATTAGTGCTAG` has a log fluorescence of 1.48 z-score.
For `GACGGTTTCCTTTTCCTGATGTGCTAG`, the log fluorescence was 1.2 z-score.
With `TTAGGTTTCGGGTTTCGGTAAGTGCTA` the log fluorescence was 9.74 z-score.
`TTAGGTTTCGTTTCCGGTTAGTGCTAG` gave a log fluorescence of 7.69 z-score.
With `TATAATTTTGTCATCTATAAGTGCTAG` the log fluorescence was 1.24 z-score.

Mixed results
Method: Spec-seq
Form: double-stranded DNA, one strand shown
Matrix: in vitro
Tested at: not given
Notes: whole probe, mean of replicates
Reference: not given
Reading: lower = stronger binding
Sox2 HMG box: Transcription factor SOX-2, HMG box (Sox2, Mus musculus, UniProt P48432, residues 41-119)
Sequence of UniProt P48432 (41-119, looked up): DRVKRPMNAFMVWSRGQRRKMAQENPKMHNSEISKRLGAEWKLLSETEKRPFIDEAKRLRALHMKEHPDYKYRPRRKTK
Under “relative binding energy”, `GAGTCGTCTCGTCAGCACGCGAGTTCCGTAGAGCACTCAGGTC` is recorded as 1.37 ln ratio (Sox2 HMG box).
`GAGTCGTCTCGTCAGCACTCCATAATCCGTAGAGCACTCAGGTC`: “relative binding energy” -0.279 ln ratio (POU domain, class 5, transcription factor 1, POU domain (Pou5f1, Mus musculus, UniProt P20263, residues 131-289)).
`GAGTCGTCTCGTCAGCACCATGCGGCCGTAGAGCACTCAGGTC`: “relative binding energy” 0.518 ln ratio (Sox2 HMG box).
